Measured values gathered from unrelated publications.
A part holds a random share of what one study measured.
UniProt Q9UK32, sequence (whole entry, looked up): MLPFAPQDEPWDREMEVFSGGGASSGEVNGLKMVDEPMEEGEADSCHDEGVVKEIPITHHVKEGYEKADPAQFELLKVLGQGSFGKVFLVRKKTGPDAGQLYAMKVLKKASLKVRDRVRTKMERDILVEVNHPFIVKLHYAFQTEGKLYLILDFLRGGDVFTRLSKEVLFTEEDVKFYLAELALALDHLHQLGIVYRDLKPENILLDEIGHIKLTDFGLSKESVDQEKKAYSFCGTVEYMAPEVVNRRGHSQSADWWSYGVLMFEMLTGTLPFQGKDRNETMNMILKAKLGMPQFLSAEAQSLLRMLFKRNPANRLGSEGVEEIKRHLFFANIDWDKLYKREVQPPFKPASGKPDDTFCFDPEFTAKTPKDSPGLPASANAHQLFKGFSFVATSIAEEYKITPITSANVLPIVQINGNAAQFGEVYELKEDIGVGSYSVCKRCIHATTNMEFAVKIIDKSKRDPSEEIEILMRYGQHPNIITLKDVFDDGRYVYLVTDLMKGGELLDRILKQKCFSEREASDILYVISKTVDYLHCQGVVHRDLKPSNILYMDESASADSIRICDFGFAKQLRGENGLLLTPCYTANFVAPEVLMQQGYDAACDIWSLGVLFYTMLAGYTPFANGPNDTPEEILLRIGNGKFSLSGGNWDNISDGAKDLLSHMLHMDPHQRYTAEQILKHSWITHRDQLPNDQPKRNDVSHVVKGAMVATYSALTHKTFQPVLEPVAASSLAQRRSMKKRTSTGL
UniProt O75716, sequence (whole entry, looked up): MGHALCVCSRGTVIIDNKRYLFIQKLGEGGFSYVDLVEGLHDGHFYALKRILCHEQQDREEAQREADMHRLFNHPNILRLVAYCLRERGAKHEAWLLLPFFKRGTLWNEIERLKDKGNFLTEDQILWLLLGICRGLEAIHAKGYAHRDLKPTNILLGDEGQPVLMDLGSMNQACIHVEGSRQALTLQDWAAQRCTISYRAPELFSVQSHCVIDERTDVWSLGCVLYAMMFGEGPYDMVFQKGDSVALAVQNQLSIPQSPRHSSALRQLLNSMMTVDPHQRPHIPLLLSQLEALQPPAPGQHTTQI
UniProt Q13554, sequence (whole entry, looked up): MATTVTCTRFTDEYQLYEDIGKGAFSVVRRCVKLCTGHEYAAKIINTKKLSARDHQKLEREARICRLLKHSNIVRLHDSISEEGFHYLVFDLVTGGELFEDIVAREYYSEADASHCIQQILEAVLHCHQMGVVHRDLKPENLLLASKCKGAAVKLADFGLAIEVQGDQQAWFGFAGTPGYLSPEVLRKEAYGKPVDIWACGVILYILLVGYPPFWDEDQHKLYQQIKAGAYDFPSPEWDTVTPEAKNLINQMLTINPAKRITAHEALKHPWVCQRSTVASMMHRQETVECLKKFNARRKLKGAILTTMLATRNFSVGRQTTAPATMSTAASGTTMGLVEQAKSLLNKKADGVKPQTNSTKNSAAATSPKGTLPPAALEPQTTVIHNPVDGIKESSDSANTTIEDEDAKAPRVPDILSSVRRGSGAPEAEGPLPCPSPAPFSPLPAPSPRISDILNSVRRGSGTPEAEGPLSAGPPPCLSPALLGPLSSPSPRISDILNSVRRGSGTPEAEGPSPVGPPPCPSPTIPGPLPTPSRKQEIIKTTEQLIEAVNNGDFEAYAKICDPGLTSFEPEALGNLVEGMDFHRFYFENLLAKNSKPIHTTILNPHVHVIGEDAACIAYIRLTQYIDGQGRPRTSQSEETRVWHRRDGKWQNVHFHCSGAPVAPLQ
UniProt P11802, sequence (whole entry, looked up): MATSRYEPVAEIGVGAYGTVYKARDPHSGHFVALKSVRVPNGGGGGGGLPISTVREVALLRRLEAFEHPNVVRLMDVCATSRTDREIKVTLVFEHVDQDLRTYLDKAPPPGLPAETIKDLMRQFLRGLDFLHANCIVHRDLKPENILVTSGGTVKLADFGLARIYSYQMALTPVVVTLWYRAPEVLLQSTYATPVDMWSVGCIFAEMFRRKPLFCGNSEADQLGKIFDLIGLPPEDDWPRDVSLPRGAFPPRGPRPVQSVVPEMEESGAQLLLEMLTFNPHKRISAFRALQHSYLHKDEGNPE
UniProt Q2M2I8, sequence (whole entry, looked up): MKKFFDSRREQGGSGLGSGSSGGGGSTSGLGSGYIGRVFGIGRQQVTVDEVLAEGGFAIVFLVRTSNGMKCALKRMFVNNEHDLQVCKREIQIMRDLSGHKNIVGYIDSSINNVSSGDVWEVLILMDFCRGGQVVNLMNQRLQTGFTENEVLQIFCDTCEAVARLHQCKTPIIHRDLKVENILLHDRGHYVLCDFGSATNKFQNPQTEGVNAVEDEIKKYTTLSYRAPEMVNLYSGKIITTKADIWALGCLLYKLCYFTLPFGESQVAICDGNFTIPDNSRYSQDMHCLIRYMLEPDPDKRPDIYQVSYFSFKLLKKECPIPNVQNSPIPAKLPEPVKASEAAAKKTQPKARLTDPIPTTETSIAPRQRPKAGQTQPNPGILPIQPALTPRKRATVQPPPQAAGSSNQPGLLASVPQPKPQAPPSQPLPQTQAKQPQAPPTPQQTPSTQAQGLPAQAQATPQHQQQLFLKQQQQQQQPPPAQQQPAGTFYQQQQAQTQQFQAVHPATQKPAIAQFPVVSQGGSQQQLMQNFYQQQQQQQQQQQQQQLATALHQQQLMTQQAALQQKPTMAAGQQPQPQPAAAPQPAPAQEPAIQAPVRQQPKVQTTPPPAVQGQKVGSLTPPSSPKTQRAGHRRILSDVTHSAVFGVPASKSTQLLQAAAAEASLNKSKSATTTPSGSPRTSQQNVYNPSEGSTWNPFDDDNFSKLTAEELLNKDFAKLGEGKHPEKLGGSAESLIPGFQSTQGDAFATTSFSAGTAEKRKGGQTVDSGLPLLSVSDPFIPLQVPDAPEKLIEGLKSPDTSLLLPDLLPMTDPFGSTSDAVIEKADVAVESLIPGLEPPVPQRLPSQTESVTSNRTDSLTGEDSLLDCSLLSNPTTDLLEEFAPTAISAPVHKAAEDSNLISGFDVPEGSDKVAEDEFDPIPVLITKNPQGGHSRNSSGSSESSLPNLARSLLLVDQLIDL
UniProt P51451, sequence (whole entry, looked up): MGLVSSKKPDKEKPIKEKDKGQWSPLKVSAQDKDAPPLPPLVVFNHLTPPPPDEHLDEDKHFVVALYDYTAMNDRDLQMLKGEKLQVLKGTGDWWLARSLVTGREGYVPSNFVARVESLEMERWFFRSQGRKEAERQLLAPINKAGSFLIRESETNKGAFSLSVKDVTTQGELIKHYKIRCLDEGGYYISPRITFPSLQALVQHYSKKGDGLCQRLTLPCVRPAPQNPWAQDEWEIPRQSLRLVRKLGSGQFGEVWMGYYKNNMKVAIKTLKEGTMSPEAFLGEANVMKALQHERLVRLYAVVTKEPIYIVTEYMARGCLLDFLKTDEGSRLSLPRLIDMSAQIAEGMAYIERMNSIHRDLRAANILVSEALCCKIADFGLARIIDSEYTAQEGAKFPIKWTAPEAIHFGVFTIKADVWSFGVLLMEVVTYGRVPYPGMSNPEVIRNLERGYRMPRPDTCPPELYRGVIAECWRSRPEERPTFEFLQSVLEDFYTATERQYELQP
UniProt Q9NRP7, sequence (whole entry, looked up): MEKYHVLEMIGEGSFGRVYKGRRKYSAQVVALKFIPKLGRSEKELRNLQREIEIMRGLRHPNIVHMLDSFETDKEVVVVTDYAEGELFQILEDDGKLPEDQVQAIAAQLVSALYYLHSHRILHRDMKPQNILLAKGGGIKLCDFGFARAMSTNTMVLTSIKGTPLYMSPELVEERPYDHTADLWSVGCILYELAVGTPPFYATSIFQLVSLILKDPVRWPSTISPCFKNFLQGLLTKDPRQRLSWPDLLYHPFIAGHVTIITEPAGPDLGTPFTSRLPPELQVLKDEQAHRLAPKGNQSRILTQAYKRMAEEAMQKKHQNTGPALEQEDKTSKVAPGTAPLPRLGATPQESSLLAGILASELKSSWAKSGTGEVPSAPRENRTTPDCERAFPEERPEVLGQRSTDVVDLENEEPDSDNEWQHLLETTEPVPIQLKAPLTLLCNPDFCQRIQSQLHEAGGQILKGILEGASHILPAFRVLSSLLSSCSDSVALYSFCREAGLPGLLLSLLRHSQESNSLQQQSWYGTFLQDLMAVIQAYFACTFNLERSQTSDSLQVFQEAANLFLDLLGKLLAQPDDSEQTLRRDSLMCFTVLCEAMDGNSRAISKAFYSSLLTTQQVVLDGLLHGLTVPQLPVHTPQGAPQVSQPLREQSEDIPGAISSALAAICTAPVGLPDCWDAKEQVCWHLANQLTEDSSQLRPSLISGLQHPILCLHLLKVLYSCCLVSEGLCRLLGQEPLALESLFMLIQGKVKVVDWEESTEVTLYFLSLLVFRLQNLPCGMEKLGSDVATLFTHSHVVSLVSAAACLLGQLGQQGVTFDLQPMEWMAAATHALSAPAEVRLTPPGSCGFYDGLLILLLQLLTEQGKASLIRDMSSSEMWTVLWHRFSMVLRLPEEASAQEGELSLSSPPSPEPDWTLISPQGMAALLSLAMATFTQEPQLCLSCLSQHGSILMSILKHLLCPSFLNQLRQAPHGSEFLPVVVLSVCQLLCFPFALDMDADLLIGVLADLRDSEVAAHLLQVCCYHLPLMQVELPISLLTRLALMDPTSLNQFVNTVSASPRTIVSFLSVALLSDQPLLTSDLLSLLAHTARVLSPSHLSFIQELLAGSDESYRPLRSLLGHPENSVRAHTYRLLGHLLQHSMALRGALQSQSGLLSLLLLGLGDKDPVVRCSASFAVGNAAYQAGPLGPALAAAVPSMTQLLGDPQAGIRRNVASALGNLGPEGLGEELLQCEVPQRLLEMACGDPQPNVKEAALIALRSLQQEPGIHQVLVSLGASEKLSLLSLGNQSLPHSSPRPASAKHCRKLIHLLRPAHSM

Series 1
Species: mouse
Sample: microsomes or S9
Tested at: 2 µM
Time: 0.5 h
Structure (SMILES) | remaining compound
CC(=O)c1c[nH]c(C(=O)Nc2cc(C(F)(F)F)ccc2O)c1 | 0.7%
NC1CCN(c2nc3c(cc2F)c(=O)c(C(=O)O)cn3-c2ccc(F)cn2)C1 (centres unmarked) | > 99%
CC(=O)c1c(Nc2ccc(F)cc2)nn(-c2ccccc2)c1C | 1.12%
O=C1CCC2(C(=O)NCCCn3cccn3)CCCC=C2N1C1CCCC1 (centres unmarked) | 1.99%
CCCSc1nc(OC)c(-c2ccccc2C)c(=O)n1C | 0.994%
CS(=O)(=O)NCC(=O)N1Cc2ccccc2C(c2ccccc2)C1 (centres unmarked) | 97.6%
CC(C)(C)c1nc(CS(=O)(=O)c2nnc3c(Cl)cc(Cl)cn23)cs1 | 0.626%
O=c1[nH]ncc(Nc2ccc3[nH]ncc3c2)c1Br | 4.76%
COC(=O)/C(=C/C(C)=C/c1cc(C(=O)OC)nc(O)n1)OC | 0.429%
CC(=O)c1c(-c2cccc3ccccc23)nc2n(CCN3CCCCC3)c3ccccc3n12 | 0.0282%
O[C@@H]1C[C@@H](c2nnc3n2CCN(Cc2cccc4[nH]ccc24)C3)N(Cc2ccccc2)C1 | 2.29%
CC(C(=O)O)n1ccc2c(cnc3ncnn32)c1=O (centres unmarked) | 77.6%
O=c1[nH]ccc2c(Cc3nnc4ccc(-c5cccc6c5oc5ccccc56)nn34)cccc12 | 56.9%
CC(C)c1csc2nc(-c3cn(C)c(=O)[nH]c3=O)[nH]c(=O)c12 | 48.3%

Series 2
SMILES: O=C(Nc1cnc(Oc2ccc(F)cc2)nc1)N1CCc2ncccc2[C@@H]1c1ccc(F)cc1
Tested at: 1 µM
target | read-out | method | remaining binding [%]
MYLK4 (Homo sapiens, UniProt Q86YV6) | cell-free assay | competition with immobilised ligand | 88
STK36 (Homo sapiens, UniProt Q9NRP7) | cell-free assay | competition with immobilised ligand | 91
EGFR (Homo sapiens, UniProt P00533, L858R) | cell-free assay | competition with immobilised ligand | 92
CDC42BPB (Homo sapiens, UniProt Q9Y5S2) | cell-free assay | competition with immobilised ligand | 73
EGFR (Homo sapiens, UniProt P00533, del747-750/T751S) | cell-free assay | competition with immobilised ligand | 100
Non-receptor tyrosine-protein kinase TYK2, JH1 (TYK2, Homo sapiens, UniProt P29597) | cell-free assay | competition with immobilised ligand | 97
ERN1 (Homo sapiens, UniProt O75460) | cell-free assay | competition with immobilised ligand | 85
MAP3K19 (Homo sapiens, UniProt Q56UN5) | cell-free assay | competition with immobilised ligand | 81
Ribosomal protein S6 kinase alpha-6, C-terminal kinase domain (RPS6KA6, Homo sapiens, UniProt Q9UK32) | cell-free assay | competition with immobilised ligand | 82
FGFR1 (Homo sapiens, UniProt P11362) | cell-free assay | competition with immobilised ligand | 82
MAP2K4 (Homo sapiens, UniProt P45985) | cell-free assay | competition with immobilised ligand | 100
MELK (Homo sapiens, UniProt Q14680) | cell-free assay | competition with immobilised ligand | 66
MAP2K1 (Homo sapiens, UniProt Q02750) | cell-free assay | competition with immobilised ligand | 93
MARK4 (Homo sapiens, UniProt Q96L34) | cell-free assay | competition with immobilised ligand | 91
FLT3 (Homo sapiens, UniProt P36888, D835V/ITD) | cell-free assay | competition with immobilised ligand | 100
TTK (Homo sapiens, UniProt P33981) | cell-free assay | competition with immobilised ligand | 86
STK16 (Homo sapiens, UniProt O75716) | cell-free assay | competition with immobilised ligand | 100
AAK1 (Homo sapiens, UniProt Q2M2I8) | binding |  | 91
DYRK1B (Homo sapiens, UniProt Q9Y463) | cell-free assay | competition with immobilised ligand | 78

Series 3
Compound: COc1cc2c(Nc3ccc(Br)cc3F)ncnc2cc1OCC1CCN(C)CC1
Read-out: enzyme activity
Mode: inhibitor
Tested at: 0.5 µM
Relative to: control
target | remaining activity [%]
SRMS (Homo sapiens, UniProt Q9H3Y6) | 98.8
RPS6KA6 (Homo sapiens, UniProt Q9UK32) | 99.3
TSSK2 (Homo sapiens, UniProt Q96PF2) | 95.9
RPS6KA5 (Homo sapiens, UniProt O75582) | 101
PHKG1 (Homo sapiens, UniProt Q16816) | 55.5
STK16 (Homo sapiens, UniProt O75716) | 101
STK17A (Homo sapiens, UniProt Q9UEE5) | 92.4
MAP4K4 (Homo sapiens, UniProt O95819) | 79.8
Cyclin-dependent kinase 1, with cyclin B (CDK1, Homo sapiens, UniProt P06493) | 102
WNK3 (Homo sapiens, UniProt Q9BYP7) | 98
EPHB1 (Homo sapiens, UniProt P54762) | 27.8
BLK (Homo sapiens, UniProt P51451) | 33.8
HIPK4 (Homo sapiens, UniProt Q8NE63) | 100
Cyclin-dependent kinase 4, with cyclin D3 (CDK4, Homo sapiens, UniProt P11802) | 101
HIPK2 (Homo sapiens, UniProt Q9H2X6) | 99.4
PRKACG (Homo sapiens, UniProt P22612) | 106
PDPK1 (Homo sapiens, UniProt O15530) | 91.3
DYRK3 (Homo sapiens, UniProt O43781) | 96
CAMK2B (Homo sapiens, UniProt Q13554) | 98.2

Single results of other studies
Structure (SMILES) | cell line | tested at | time | measurement | result
NC1C(O)O[C@H](CO)C(O[C@@H]2O[C@H](CO)C(O[C@@H]3O[C@H](CO)[C@@H](O)[C@H](O)[C@H]3N)[C@H](O)C2N)C1O (some centres unmarked) | A-375 | 100 µM | 60 h | viability | 99.5%
